{"data": "Measurements pooled from the literature", "organism": "Severe acute respiratory syndrome coronavirus 2", "note": "Lines come from different studies, so protocols differ."}
{"SMILES": "C=CCc1cc(-c2cc(CC=C)c3oc(=O)n(Cc4nnc(-c5ccc(OC)cc5)o4)c3c2)c2oc(=O)n(Cc3nnc(-c4ccc(OC)cc4)o3)c2c1", "observed": "viral entry", "action": "inhibitor", "setting": "pseudovirus", "IC50 [µM]": 11.9}
{"SMILES": "CC(C)C(=O)OCC(=O)[C@@]12O[C@H](C3CCCCC3)O[C@@H]1C[C@H]1[C@@H]3CCC4=CC(=O)C=C[C@]4(C)[C@H]3[C@@H](O)C[C@@]12C", "observed": "viral replication", "action": "inhibitor", "cell line": "Calu-3", "IC50 [µM]": 4.5}
{"SMILES": "CC(C)C(=O)OC[C@@]1(F)O[C@@H](n2cnc(-c3cnc(N)nc3)c2)[C@H](OC(=O)C(C)C)[C@@H]1OC(=O)C(C)C", "observed": "viral replication", "action": "inhibitor", "cell line": "A549-ACE2", "time": "24 h", "IC50 [µM]": "> 100"}
{"SMILES": "Cc1cnc(C(=O)N[C@H]2CCCCC/C=C\\[C@@H]3C[C@@]3(C(=O)NS(=O)(=O)C3CC3)NC(=O)[C@@H]3C[C@@H](Oc4nc5ccccc5c5ccccc45)CN3C2=O)cn1", "observed": "viral replication", "action": "inhibitor", "cell line": "HEK-293T", "IC50 [µM]": 0.55}
{"SMILES": "CC(C)C(=O)OC[C@@]1(F)O[C@@H](n2cnc(-c3cnc(N)[nH]c3=O)c2)[C@H](OC(=O)C(C)C)[C@@H]1OC(=O)C(C)C", "observed": "viral replication", "action": "inhibitor", "cell line": "A549-ACE2", "time": "24 h", "IC50 [µM]": "> 100"}
{"SMILES": "C[C@]12C=CC(=O)C=C1CC[C@@H]1[C@@H]2[C@@H](O)C[C@@]2(C)[C@H]1C[C@H]1O[C@@H](C3CCCCC3)O[C@]12C(=O)CO", "observed": "viral replication", "action": "inhibitor", "cell line": "Calu-3", "IC50 [µM]": 13.4}
{"SMILES": "CCC(CC)COC(=O)[C@H](C)N[P@](=O)(OC[C@H]1O[C@@](C#N)(c2ccc3c(N)ncnn23)[C@H](O)[C@@H]1O)Oc1ccccc1", "observed": "cytopathic effect", "cell line": "Vero C1008", "time": "72 h", "IC50 [µM]": 0.51}
{"SMILES": "N[C@@H](CC(=O)N1CCn2c(nnc2C(F)(F)F)C1)Cc1cc(F)c(F)cc1F", "observed": "viral replication", "cell line": "Vero C1008", "time": "48 h", "IC50 [µM]": 1.46}
{"SMILES": "Cc1cccc(NC(=O)C[S+]([O-])c2nc(-c3ccccc3)cn2-c2ccc(Cl)cc2)c1C (racemic)", "observed": "viral entry", "IC50 [µM]": 14.7}
{"SMILES": "CC(C)C(=O)Nc1ncncc1-c1cn([C@@H]2O[C@](F)(COC(=O)C(C)C)[C@@H](OC(=O)C(C)C)[C@H]2OC(=O)C(C)C)cn1", "observed": "viral replication", "action": "inhibitor", "cell line": "A549-ACE2", "time": "24 h", "IC50 [µM]": 25}
{"SMILES": "CC1=CCC(=C(C)C)CC1", "observed": "cytopathic effect", "cell line": "Vero C1008", "time": "72 h", "IC50 [µM]": "~2.31"}
{"SMILES": "Clc1ccc2nc(-c3ccccc3)c(-c3ccccc3)nc2c1", "observed": "viral entry", "action": "inhibitor", "setting": "pseudovirus", "IC50 [µM]": 21.3}
{"SMILES": "CC(C)(C)NC(=O)N[C@H](C(=O)N1C[C@H]2[C@@H]([C@H]1C(=O)NC(CC1CCC1)C(=O)C(N)=O)C2(C)C)C(C)(C)C (stereo partly shown)", "observed": "viral replication", "action": "inhibitor", "cell line": "HEK-293T", "IC50 [µM]": 5.4}
{"SMILES": "Cn1cnc(Cn2c(=O)[nH]/c(=N\\c3cc4cn(C)nc4cc3Cl)n(Cc3cc(F)c(F)cc3F)c2=O)n1", "observed": "viral replication", "cell line": "Vero C1008", "IC50 [µM]": 0.172}
{"SMILES": "CCC[C@H](NC(=O)[C@@H]1[C@H]2CCC[C@H]2CN1C(=O)[C@@H](NC(=O)[C@@H](NC(=O)c1cnccn1)C1CCCCC1)C(C)(C)C)C(=O)C(=O)NC1CC1", "observed": "viral replication", "action": "inhibitor", "cell line": "HEK-293T", "IC50 [µM]": 20.5}
{"SMILES": "COc1ncncc1-c1cn([C@@H]2O[C@](F)(CO)[C@@H](O)[C@H]2O)cn1", "observed": "viral replication", "action": "inhibitor", "cell line": "A549-ACE2", "time": "24 h", "IC50 [µM]": "> 100"}
{"SMILES": "CC(C)C[C@H](NC(=O)[C@H](Cc1ccccc1)NC(=O)c1cnccn1)B(O)O", "observed": "cytopathic effect", "cell line": "Vero C1008", "time": "72 h", "IC50 [µM]": "~0.496"}
{"SMILES": "COc1ncc(-c2cn([C@@H]3O[C@](F)(COC(=O)C(C)C)[C@@H](OC(=O)C(C)C)[C@H]3OC(=O)C(C)C)cn2)c(OC)n1", "observed": "viral replication", "action": "inhibitor", "cell line": "A549-ACE2", "time": "24 h", "IC50 [µM]": 18.7}
{"SMILES": "CC#CCn1c(N2CCC[C@@H](N)C2)nc2c1c(=O)n(Cc1nc(C)c3ccccc3n1)c(=O)n2C", "observed": "viral replication", "cell line": "Vero C1008", "time": "48 h", "IC50 [µM]": 2.21}
{"note": "For quick reference, copied from above:"}
{"SMILES": "CC(C)C(=O)Nc1ncncc1-c1cn([C@@H]2O[C@](F)(COC(=O)C(C)C)[C@@H](OC(=O)C(C)C)[C@H]2OC(=O)C(C)C)cn1", "observed": "viral replication", "action": "inhibitor", "cell line": "A549-ACE2", "time": "24 h", "IC50 [µM]": 25}
{"SMILES": "CC1=CCC(=C(C)C)CC1", "observed": "cytopathic effect", "cell line": "Vero C1008", "time": "72 h", "IC50 [µM]": "~2.31"}
